Results pooled from the literature.
Each numbered part is a random draw from the data of one study; scales do not carry over between parts. Substitutions count along the parent as printed.

Study 1 — method: RNA Bind-n-Seq; molecule type: RNA; medium: in vitro; tested at: 200 nM; setting: whole 134-nt RNA, ends assumed; with: 150 mM KCl; reference: input library; reading: higher = stronger binding
Target: Ras GTPase-activating protein-binding protein 1, full length (G3BP1, Homo sapiens, UniProt Q13283)
UniProt Q13283, sequence (whole entry, looked up): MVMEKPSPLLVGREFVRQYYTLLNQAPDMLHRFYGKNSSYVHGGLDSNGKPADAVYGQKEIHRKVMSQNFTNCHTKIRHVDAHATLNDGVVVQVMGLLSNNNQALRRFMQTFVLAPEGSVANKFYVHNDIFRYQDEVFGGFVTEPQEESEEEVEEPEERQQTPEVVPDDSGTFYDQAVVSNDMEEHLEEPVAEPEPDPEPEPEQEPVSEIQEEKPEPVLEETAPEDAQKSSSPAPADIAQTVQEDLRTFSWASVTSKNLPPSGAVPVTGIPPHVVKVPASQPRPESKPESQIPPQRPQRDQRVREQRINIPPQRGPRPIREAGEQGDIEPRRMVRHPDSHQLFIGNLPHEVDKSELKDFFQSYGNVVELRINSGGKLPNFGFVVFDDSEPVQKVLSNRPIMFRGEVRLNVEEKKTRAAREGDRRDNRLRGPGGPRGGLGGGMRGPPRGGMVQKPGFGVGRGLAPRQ
Shared flanks, not repeated: GGGAGUUCUACAGUCCGACGAUC … UGGAAUUCUCGGGUGUCAAGG
Sequence	log2 enrichment
ACCAUGCAGGUGGGCAUCUUUGGGAAGUGGGGCAAGGGGGGGAUAGGGAGGGGGGUAACACUUUGGGAACAGGUGGACCCAGGUCGUUUC	1.09
CACAGACAACACGCACCCACACAGACACAGAGGGAAGGGGUUGGGAUGGGGACAGGGUGCACAGCAGGGCGGGGUAGGACCCCAGCCCCC	1.92
UCCUCAAGUCCUGUGCUACACAUCGUAUGUACCGAAUCGGUGGUGGGGUGGGAAAGUAUUAUGUUACGCCGUUCGGAUCUGCACUUCCAG	0.385
GUCCUGUGCUACACAUCGUAUGUACCGAAUCGGAAAAAGGGGAAAAAGGGAAAAAGGGGAAAGUAUUAUGUUACGCCGUUCGGAUCUGCA	-0.189
UCCUCAAGUCCUGUGCUACACAUCGUAUGUACCGAAUCGGAGGGGAGGAGGGAAAGUAUUAUGUUACGCCGUUCGGAUCUGCACUUCCAG	0.334
CACAGACAACACGCACCCACACAGACACAGAGGGAAGGGGUUGGGAUGGGGACAGGGUGCAUAGCAGGGCGGGGUAGGACCCCAGCCCCU	1.74
UGGGAGGUGGAUUUUGUUUAUUUUUUUAGCUCAUUUCCAGGGGUGGGAAUUUUUUUUUAAUAUGUGGCAUGAAUAAAGUUGUUUUUGAAA	0.264
GUCCUGUGCUACACAUCGUAUGUACCGAAUCAAAUUUUUAAAUUUUUAAACCCCCAAAAAAGUAUUAUGUUACGCCGUUCGGAUCUGCAC	-0.122
UACUAUGAAGCCUUGUGCAAAUCCCUCGACUGGCAGAUAGACGUGGACCUACUCAAUAAAAUGAAGAAGGCAAAUGAAGAUGAGUUGAAG	-0.215
CAAGUCCUGUGCUACACAUCGUAUGUACCGAAUCGGGAAAGGGUUUGGGUUUGGGAAAGUAUUAUGUUACGCCGUUCGGAUCUGCACUUC	0.602
CUCAAGUCCUGUGCUACACAUCGUAUGUACCGAAUCGGUUGGGGUUGGGUUGGGAAAGUAUUAUGUUACGCCGUUCGGAUCUGCACUUCC	0.984
AAGUCCUGUGCUACACAUCGUAUGUACCGAAUCGGGAAAGGGAAAAAGGGUUUGGGAAAGUAUUAUGUUACGCCGUUCGGAUCUGCACUU	0.109
CACAGACAACACGCACCCACACAGACACAGAGGGAAGGGGUUGGGAUGGGGACAGGGUGCACAGCAGGGCGGGGUAGGACCCCAACCCCU	1.89
UCCUCAAGUCCUGUGCUACACAUCGUAUGUACCGAAUCGGUGGGUGGUGGGGAAAGUAUUAUGUUACGCCGUUCGGAUCUGCACUUCCAG	0.454

Study 2 — method: RNA Bind-n-Seq; molecule type: RNA; medium: in vitro; tested at: 365 nM; reference: no-protein control; reading: higher = stronger binding
Target: RNA binding protein fox-1 homolog 2, RRM domain, GST-SBP tag (RBFOX2, Homo sapiens, UniProt O43251-10, residues 100-194)
Setting: natural RNA segment, single round, ends assumed
Shared flanks, not repeated: GGGAGUUCUACAGUCCGACGAUC … UGGAAUUCUCGGGUGCCAA
Target sequence (chain): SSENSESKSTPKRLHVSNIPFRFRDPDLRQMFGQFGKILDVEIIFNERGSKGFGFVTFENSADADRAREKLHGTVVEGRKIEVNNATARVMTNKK
Sequence	RBNS enrichment (R)
UUUUUUUAAAUUUUUAUUUUAAAAGGCACAAAACUAUAGAUAUUAGUUGAAUGUUGAGGCUUUAACUUUUUCGGUGUCUUUCUACAGCUGUGUUCUGUGACUCAAUUGUA	0.556
AGGUUCAGCCACAUGCCUAGACUUAUAUACUAGUUAGUGGUGCAGCCAGGGAGAGGACUCAGAUUUCCUGGAGGCAAAGUCUAUCUCUGAAACUCCAUGAAGACUUUUGC	0.324
AAAUAUCCCUGUUCUUAGUUACCUUGCCACUUUGGCUUCUCCUGUGGCCCUGCCUUUACCAUAUCAGUGACAGAGAGAGGCUGCUUCAGGUCUGAGGCUAUCCCUCAGCC	0.353
ACAUACAUAUGCCGUAAGGCGCAAUCACUGUUUCAGACUUAAAAUUAUUAGUGUGUUUGUUUGGUCCAGAAACUGAGACAAUCACAUGACAGUCACCACGAGGAGAGAAA	0.509
CUGGGAGUUCCCUGAACAUCUGUGUGUGUCCCCCUAUGCUCCAGUAUGGAAGAAUGGGGUGGAGGGUCGCCACACCCGGCUCCCCCUGCUUCUCAGCCCCGGGCCUGCCU	1.04
UGCAGUCUUCUCUCCACCCUGUACCCCGGAGUCCUGAUUGGAUGUCUGCAGAGGCAGAUGGGGCUCCCACCAUAUUUUCAGGCCGCAAGUGCAAUUCCUGAAGGCAUCAG	0.447
CAUGCCAUCGCCAUGACCCCCCCUGGCAUGCCACCUCAGGGGCAUGCACCUUCAAGUGCCUUUCACUGCACACCAAAGUCCCAAAGCUCGAAGCAGCGUACUUGCCCCAG	0.67
CCUGGUCAGCUCCUCACGUAAUUGGGGGUGGAGGGAAAGCAUGGUGGUGCCCUGGGCCGUCCCUGUGUGAACGCAGGCAAAAGCAGCCCAGUCCCCCUCACUGCUUGAGC	0.518
CCCCGUCUUCCAGGAGCCACAACUCAGAAGAAAAGGGUGCUCAGACUUUUGUUAUACACAUUUGCUUUGUGUAAAUAAAUGUUUACAAUUUUAUAUGAAAGAUGGAAUAA	0.328
UAGUGAAAUUGUAUCUCAUAUUAACAUUUCAAAUGCUCAUAUUGAAAAUGGAAAAUAGUAAACACGGGAAUUGAUUUUAUUCUGGUUGUCUAUAAUACUUCAUUUUAAAU	0.437
AUAUUUUGUAUUUUCACCUUUAUAAACAUGAAUCCUCAGGGGUGAAGAACUGUUUGCAUAAUUUUCUGAAUUUUGAGCACUUUGUGCUAUAUAAGGACCCAUAUUUAAGC	1.32
UAUAUCCCUGAUUGGUUAUUUUUCCUUUCCUUCUGAGGUUCUCAUGUCAUUUUCUUCAUCGGAUGUGACUAAAAUUUUUCUGGUGUCUUCUGCCCUCUCUUUAAUUUUGC	0.622

Study 3 — method: Spec-seq; molecule type: double-stranded DNA, one strand shown; medium: in vitro; tested at: not given; setting: whole probe, mean of replicates; reference: not given; reading: lower = stronger binding; shared flanks, not repeated: GAGTCGTCTCGTCAGCAC … CCGTAGAGCACTCAGGTC
Target: POU domain, class 5, transcription factor 1, POU domain (Pou5f1, Mus musculus, UniProt P20263, residues 131-289)
UniProt P20263, sequence (131-289, looked up): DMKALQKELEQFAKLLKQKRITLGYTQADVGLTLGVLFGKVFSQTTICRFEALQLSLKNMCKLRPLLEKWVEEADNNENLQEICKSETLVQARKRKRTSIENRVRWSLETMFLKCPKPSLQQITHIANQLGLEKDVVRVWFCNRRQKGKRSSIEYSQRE
Sequence	relative binding energy [ln ratio]
ATGCGTCA	0.296
CCTGTAAT	0.829
ATGCGCTG	0.872
ATGCGTAA	-0.36
ATAAAGAT	0.295
ATTTTGAT	0.155
ATCTCGAT	0.715
TCAGTAAT	0.652
GCAGTAAT	0.728
AGGTTAAT	0.641
ATTCTTAT	0.327
TCCGTAAT	0.828
AACTTAAT	0.364
GAAGTAAT	0.713
GCTGTAAT	0.82
ACGCTAAT	-0.0741
CAGCTAAT	0.84

Study 4 — target: CCNA1, cyclin fold, Cln2 fusion (human); method: yeast growth competition, sequencing; medium: yeast; setting: weak parent motif; reference: not given; reading: higher = stronger binding
Starting sequence: CDC25A docking peptide (human); PPHRRRLLFACSP; partner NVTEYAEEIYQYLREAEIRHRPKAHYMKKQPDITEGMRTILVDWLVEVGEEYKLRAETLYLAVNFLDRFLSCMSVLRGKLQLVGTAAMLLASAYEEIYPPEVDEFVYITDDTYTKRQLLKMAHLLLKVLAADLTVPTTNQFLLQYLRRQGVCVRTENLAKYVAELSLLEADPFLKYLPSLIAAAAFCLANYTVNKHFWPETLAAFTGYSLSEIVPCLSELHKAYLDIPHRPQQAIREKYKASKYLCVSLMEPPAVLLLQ
Change	normalised enrichment score
SPHRRRLLFACSP [P1S]	0.221
PPHRRGLLFACSP [R6G]	0.144
PPHRRFLLFACSP [R6F]	-0.396
PPHRRRLLFACVP [S12V]	0.399
PPHNRRLLFACSP [R4N]	0.382
PPHVRRLLFACSP [R4V]	0.407
PPHRRRLLCACSP [F9C]	0.219
PPHRRRLCFACSP [L8C]	0.167
PPHRRRLNFACSP [L8N]	0.352
PPHRRRLLFGCSP [A10G]	0.0925
PPHRRCLLFACSP [R6C]	-0.00194
PPGRRRLLFACSP [H3G]	0.318
PPHRRRLLFDCSP [A10D]	0.302
PPHRLRLLFACSP [R5L]	0.364
PPHGRRLLFACSP [R4G]	0.347
NPHRRRLLFACSP [P1N]	0.4
PPHRARLLFACSP [R5A]	0.438
PPHRRRLLYACSP [F9Y]	0.24

Study 5 — method: protein binding microarray; molecule type: double-stranded DNA, one strand shown; medium: in vitro; tested at: not given; reference: not given; reading: higher = stronger binding
Target: Histone acetyltransferase KAT6A, winged helix 2, GST fusion (KAT6A, Homo sapiens, UniProt Q92794, residues 85-181)
Setting: 8-mer, flanks averaged, mean of 2 arrays, mostly near background
Target sequence (chain): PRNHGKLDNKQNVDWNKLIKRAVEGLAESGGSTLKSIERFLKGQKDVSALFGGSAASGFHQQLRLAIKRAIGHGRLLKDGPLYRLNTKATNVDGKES
Sequence	E-score
ACCTTTTA	-0.18
TTCGTAAA	-0.0507
GCCGAGGA	0.14
AAATAACT	0.0313
TCCCTAGA	0.0458
AAGGGGGT	-0.113
CGCGGGTC	0.245
ATAGGCGA	0.0515
GCTCATTA	-0.0224
ACGTAGAT	-0.163
TATATATA	0.188
CGATGTAA	-0.188
TTCGAGAA	-0.01
AGTCCCAT	-0.266
AATAAGAA	0.162
CCTGTTCA	0.0192
CCTTTAGC	0.106
AGTCCTAC	0.0563
CCTTGGCG	0.0132
TACTACCA	-0.155
AACTTTTC	-0.105
GCGAGCTA	0.0533

Study 6 — method: protein-binding microarray; molecule type: double-stranded DNA, one strand shown; medium: in vitro; tested at: not given; reading: higher = stronger binding
Target: Max-binding protein MNT, bHLH-zipper, MAX partner unstated (MNT, Homo sapiens, UniProt Q99583, residues 220-300)
Setting: k-mer, scored over probes, only values ≥0.25
Target sequence (chain): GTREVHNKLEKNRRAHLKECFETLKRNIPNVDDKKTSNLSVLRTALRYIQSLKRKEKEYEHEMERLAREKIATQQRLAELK
Sequence	E-score
ACGCGAGC	0.297
CAATGTGA	0.279
CACGGGGA	0.332
AGCACGCA	0.352
TAGCGTGA	0.273
CTGCGTGC	0.311
CGACCCAC	0.259
CCGCGTGC	0.467
CATGGTTC	0.284
AGCATGTG	0.466
AGCACGTG	0.497
GGTGTGCA	0.262
CCTCGTGA	0.42
AACCAACG	0.297
CCCCTCCA	0.317
GCGTGACA	0.384
GCGTGGCA	0.415
ACGCACAC	0.306
AACACGTG	0.497
ATGGGGGC	0.302

Study 7 — method: universal PBM; molecule type: double-stranded DNA, one strand shown; medium: in vitro; tested at: 600 nM; reading: higher = stronger binding
Target: Sal-like protein 4, full length isoform A (SALL4, Homo sapiens, UniProt Q9UJQ4, residues 1-1053)
UniProt Q9UJQ4, sequence (whole entry, looked up): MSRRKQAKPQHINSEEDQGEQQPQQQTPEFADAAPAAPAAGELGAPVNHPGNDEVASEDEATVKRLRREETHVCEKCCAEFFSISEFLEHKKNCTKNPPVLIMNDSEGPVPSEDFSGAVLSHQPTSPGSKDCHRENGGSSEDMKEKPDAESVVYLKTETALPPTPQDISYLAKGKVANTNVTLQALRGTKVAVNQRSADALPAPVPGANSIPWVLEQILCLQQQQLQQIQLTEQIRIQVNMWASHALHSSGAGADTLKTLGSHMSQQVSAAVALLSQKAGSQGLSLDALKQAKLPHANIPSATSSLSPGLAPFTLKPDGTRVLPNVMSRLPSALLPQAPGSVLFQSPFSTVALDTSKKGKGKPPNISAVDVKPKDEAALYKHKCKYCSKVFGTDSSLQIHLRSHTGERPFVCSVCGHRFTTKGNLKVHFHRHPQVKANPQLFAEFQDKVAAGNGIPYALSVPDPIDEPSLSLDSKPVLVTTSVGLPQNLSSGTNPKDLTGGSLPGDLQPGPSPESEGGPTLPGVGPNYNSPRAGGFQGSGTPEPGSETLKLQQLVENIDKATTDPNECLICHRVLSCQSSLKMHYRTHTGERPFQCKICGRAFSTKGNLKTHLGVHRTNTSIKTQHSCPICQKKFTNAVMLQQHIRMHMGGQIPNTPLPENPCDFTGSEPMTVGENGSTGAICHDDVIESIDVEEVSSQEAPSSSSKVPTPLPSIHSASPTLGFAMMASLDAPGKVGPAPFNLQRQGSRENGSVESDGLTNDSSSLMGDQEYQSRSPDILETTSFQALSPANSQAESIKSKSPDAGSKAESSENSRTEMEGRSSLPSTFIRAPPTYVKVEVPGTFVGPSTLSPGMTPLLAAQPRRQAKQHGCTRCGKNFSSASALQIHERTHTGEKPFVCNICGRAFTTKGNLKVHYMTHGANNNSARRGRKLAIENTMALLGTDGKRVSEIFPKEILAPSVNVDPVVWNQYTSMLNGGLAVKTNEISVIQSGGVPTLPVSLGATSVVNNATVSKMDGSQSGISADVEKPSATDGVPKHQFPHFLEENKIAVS
Setting: 8-mer, flanks averaged, mean of replicates
Sequence	E-score
AATCACCA	0.154
AGTAGGGG	-0.114
CTGACATA	0.21
AGGTGCCC	-0.324
TAAGTATA	0.329
CTCGGGAC	-0.237
AATCTCGC	0.127
CATCCGCC	-0.197
ATCCTAAT	0.176
ATGTACGC	0.0787
ACGCGACA	-0.0184
CCATAACG	0.121
CACCCCTA	-0.139
GTTTTTTA	0.201
CCCTTCAA	0.00784
AAGCAAGT	0.0633
GTCTCATA	0.206
ATCCTTAG	0.0747
AACCTAGG	-0.0204
CCTAATTA	0.203
AGCACTCA	-0.15

A few entries again (study 6):
Sequence	E-score
CGACCCAC	0.259
CCGCGTGC	0.467
CATGGTTC	0.284
AGCATGTG	0.466
AGCACGTG	0.497
GGTGTGCA	0.262
CCTCGTGA	0.42
AACCAACG	0.297
